Assay results from different studies.
Protocols differ between the studies behind these lines. Numbers after ± are the reported error.

CC[P+](CC)(CC)[Au-][S][C@@H]1O[C@H](COC(C)=O)[C@@H](O[C@@H]2O[C@H](COC(C)=O)[C@H](OC(C)=O)[C@H](OC(C)=O)[C@H]2OC(C)=O)[C@H](OC(C)=O)[C@H]1OC(C)=O — logP (n-octanol/water): 1.04
CC[P+](c1ccccc1)(c1ccccc1)c1ccccc1 — logP (HPLC; octanol/PBS): -0.429
N=C(N)NCCC[C@@H]1NC(=O)[C@H](CCCCNC(=O)CC[C@H](NC(=O)CC[C@H](NC(=O)CN2CCN(CC(=O)O)CCN(CC(=O)O)CCN(CC(=O)O)CC2)C(=O)N[C@@H](CCC(=O)NCCCC[C@@H]2NC(=O)[C@@H](Cc3ccccc3)NC(=O)[C@H](CC(=O)O)NC(=O)CNC(=O)[C@H](CCCNC(=N)N)NC2=O)C(=O)NCCCC[C@@H]2NC(=O)[C@@H](Cc3ccccc3)NC(=O)[C@H](CC(=O)O)NC(=O)CNC(=O)[C@H](CCCNC(=N)N)NC2=O)C(=O)NCCCC[C@@H]2NC(=O)[C@@H](Cc3ccccc3)NC(=O)[C@H](CC(=O)O)NC(=O)CNC(=O)[C@H](CCCNC(=N)N)NC2=O)NC(=O)[C@@H](Cc2ccccc2)NC(=O)[C@H](CC(=O)O)NC(=O)CNC1=O [indium-111 labelled] — logP (octanol/PBS; pH 7.4, room temperature): -4.15 ± 0.07
CC1=CC(c2cccc(C(F)(F)F)c2)=[O+][Ru-]([Cl])[O]1.Cc1c(C)c(C)c(C)c(C)c1C — logP (shake-flask; octanol-water; 37 °C, Ru measured by ICP-MS, added: 100 mM NaCl): 1.2
Cn1ccn(N=Cc2ccccc2SSc2ccccc2C=Nn2ccn(C)c2=S)c1=S — logP (stir-flask, HPLC; octanol/water): 3.3 ± 0.2
COC(=O)c1ccccc1-c1c2ccc(=O)cc-2oc2cc(OCCCCCCCCCCC[P+](c3ccccc3)(c3ccccc3)c3ccccc3)ccc12 — logP (shake-flask HPLC; 1-octanol/water): 2.72 ± 0.07
COc1cc(O)c(C=NCCCN(C)CCN(C)CCCN=Cc2c(O)cc(OC)cc2OC)c(OC)c1 — logP (1-octanol/saline; pH 7.4, 67Ga complex): 2.97 ± 0.04
CC1(C)OB(c2ccc(COC(=O)N[c-]3cccc3)cc2)OC1(C)C.[Fe+2].c1cc[cH-]c1 — logP (RP-TLC; MOPS/acetonitrile; pH 7.4): 5 ± 0.3
O=[N][Fe]1([N]=O)[S](CCO)[Fe]([N]=O)([N]=O)[S]1CCO — logP (n-octanol/water): 1
Cc1c([O][Ru][Cl])c(=O)ccn1CCCCn1ccc(=O)c([O][Ru][Cl])c1C.Cc1ccc(C(C)C)cc1.Cc1ccc(C(C)C)cc1 — logP (shake flask, UV-vis; n-octanol/water; aqua complex): -1.38
CCN(CC)c1ccc2c(-c3ccc(S(=O)(=O)NCCNC(=O)CN4CCN(CC(=O)[O-])CCN(CC(=O)O)CCN(CC(=O)[O-])CC4)cc3S(=O)(=O)[O-])c3ccc(=[N+](CC)CC)cc-3oc2c1.[64Cu+2] — logP: -1.4 ± 0.1
Cc1ccc(C(C)C)cc1.[C-]#[O+].[C-]#[O+].[C-]#[O+].[Cl-].[Cl-].[Cl-].[Re+].[Ru+2].c1cnc(-c2ncccn2)nc1 — logP (shake flask): 0.241
O=C(N[c-]1cccc1)OCc1ccc(C(=O)O)cc1.[Fe+2].c1cc[cH-]c1 — logP (RP-TLC; MOPS/acetonitrile; pH 7.4): 1.9 ± 0.04
Fc1cc2nc3c4cccnc4c4ncccc4c3nc2cc1F.[Cl-].[Cl-].[Ru+2].c1ccncc1.c1ccncc1.c1ccncc1.c1ccncc1 — logP (n-octanol/water): -1.15 ± 0.05
COc1cc(OC)cc(C2=C3C(C)=C(I)C(C)=[N+]3[B-](F)(F)n3c(/C=C/c4c[nH]c5ccccc45)c(I)c(C)c32)c1 — logP (octanol/HEPES buffer; pH 7.4, room temperature): 1.04

Repeated from above:
COc1cc(O)c(C=NCCCN(C)CCN(C)CCCN=Cc2c(O)cc(OC)cc2OC)c(OC)c1 — logP (1-octanol/saline; pH 7.4, 67Ga complex): 2.97 ± 0.04
